Results of several laboratories.
Each line is one published result; not all experiments were run side by side.
Effect on: metabolic stability

| Structure (SMILES) | host | matrix | concentration | pH | endpoint | result |
| --- | --- | --- | --- | --- | --- | --- |
| O=C(c1ccc(-c2cccc(C(F)(F)F)c2)cc1)N1CCN(c2ncccn2)CC1 | rat | liver microsomes |  |  | microsomal CLint | 242 µL/min/mg |
| Cc1ncsc1-c1ccc([C@@H]2CCCCCCNC(=O)C[C@@H]3N=C(c4ccc(cc4)OCCCCCC(=O)N[C@@H](C(C)(C)C)C(=O)N4C[C@H](O)C[C@H]4C(=O)N2)c2c(sc(C)c2C)-n2c(C)nnc23)cc1 | rat | liver microsomes | 1 µM |  | scaled CLint | 15.3 mL/min/kg |
| CCC1(CC)CC(=O)N(C2c3cc(C(=O)NC4c5ccccc5CC4O)ccc3OC2(C)COC)C(=N)N1 (stereo not shown) | rat | hepatocytes |  |  | hepatocyte CLint | 13.5 µL/min/10⁶ cells |
| C=CC(=O)N1CCCC(n2c(=O)c3ncccc3n(Cc3ccc(Oc4ccccc4)cc3)c2=O)C1 (stereo not shown) | male Sprague-Dawley rat | hepatocytes | 1 µM |  | hepatocyte CLint | 147 µL/min/10⁶ cells |
| CCC1(CC)CC(=O)N(C2CCOc3ccc(C(=O)NC4CC(C)(C)Oc5ccccc54)cc32)C(=N)N1 (stereo not shown) | rat | hepatocytes |  |  | hepatocyte CLint | 22.5 µL/min/10⁶ cells |
| CNC(=O)C1CCCN(C(=O)C2CC3CCC2N3C(=O)[C@@H]2C[C@@H](O)CN2C(=O)NCc2cccc(Cl)c2F)C1 (mixture of isomers) | rat | liver microsomes |  |  | microsomal CLint | 4.4 µL/min/mg |
| CCC(CC)CNC(=N)NC(=N)NCCCCCCNC(=N)NC(=N)NCC(CC)CC | rat | hepatocytes | 1 µM |  | hepatocyte CLint | 10.7 µL/min/10⁶ cells |
| Cc1ccc2c(c1)nc(NC(=O)c1cccc(C(F)(F)F)c1)n2[C@H]1CC[C@H](N)CC1 | rat | liver microsomes |  |  | microsomal CLint | 184 µL/min/mg |
| COc1cc(C)c(C(N)=O)cn1 | male Wistar rat | hepatocytes | 1 µM | pH 7.4 | hepatocyte CLint | 6 µL/min/10⁶ cells |
| O=C(Nc1nc(C(F)(F)F)co1)C1c2ccccc2Oc2ccccc21 | rat | liver microsomes | 1 µM | pH 7.4 | scaled CLint | 661 mL/min/kg |
| O=C(Nc1cc(-c2ccnc3[nH]ccc23)c(Cl)cn1)[C@H]1CCC[C@@H](NC(=O)C(F)(F)F)C1 | rat | liver microsomes |  |  | microsomal CLint | 39.8 µL/min/mg |
| COc1ccc(C(N)=O)cn1 | male Wistar rat | hepatocytes | 1 µM | pH 7.4 | hepatocyte CLint | 3.3 µL/min/10⁶ cells |
| Cc1cc(C(=O)Nc2nc3cccc(C)c3n2[C@H]2CCCCN(C(=O)/C=C/CN(C)C)C2)ccn1 | rat | liver microsomes |  |  | microsomal CLint | 22.2 µL/min/mg |

For quick reference, copied from above:
| Structure (SMILES) | host | matrix | concentration | pH | endpoint | result |
| --- | --- | --- | --- | --- | --- | --- |
| O=C(Nc1cc(-c2ccnc3[nH]ccc23)c(Cl)cn1)[C@H]1CCC[C@@H](NC(=O)C(F)(F)F)C1 | rat | liver microsomes |  |  | microsomal CLint | 39.8 µL/min/mg |
| COc1ccc(C(N)=O)cn1 | male Wistar rat | hepatocytes | 1 µM | pH 7.4 | hepatocyte CLint | 3.3 µL/min/10⁶ cells |
